{"data": "Measurements collected from several papers", "note": "Parts stem from different laboratories: compare values within a part only.", "chain of UniProt Q86UE8 (whole entry, looked up)": "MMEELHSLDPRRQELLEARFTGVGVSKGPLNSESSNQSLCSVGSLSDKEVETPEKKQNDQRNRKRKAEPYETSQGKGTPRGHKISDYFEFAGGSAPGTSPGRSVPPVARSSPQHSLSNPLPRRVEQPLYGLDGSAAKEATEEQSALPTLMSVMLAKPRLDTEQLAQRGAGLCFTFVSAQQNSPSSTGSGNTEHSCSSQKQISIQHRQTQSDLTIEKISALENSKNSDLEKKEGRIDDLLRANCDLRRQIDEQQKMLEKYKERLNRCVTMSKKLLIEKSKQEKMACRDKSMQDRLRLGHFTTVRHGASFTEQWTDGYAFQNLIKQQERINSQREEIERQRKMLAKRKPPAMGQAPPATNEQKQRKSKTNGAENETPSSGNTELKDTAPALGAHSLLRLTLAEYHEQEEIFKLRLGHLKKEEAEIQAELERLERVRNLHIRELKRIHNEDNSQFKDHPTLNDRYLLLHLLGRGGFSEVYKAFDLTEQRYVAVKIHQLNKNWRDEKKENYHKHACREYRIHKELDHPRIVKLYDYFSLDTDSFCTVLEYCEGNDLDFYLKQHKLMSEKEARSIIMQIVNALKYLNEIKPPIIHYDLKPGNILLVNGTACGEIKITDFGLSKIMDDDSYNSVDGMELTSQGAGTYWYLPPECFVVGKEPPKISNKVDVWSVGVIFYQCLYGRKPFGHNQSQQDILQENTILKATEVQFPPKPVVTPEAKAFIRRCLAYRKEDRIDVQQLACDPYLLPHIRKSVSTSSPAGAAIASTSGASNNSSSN", "chain of UniProt Q15569 (whole entry, looked up)": "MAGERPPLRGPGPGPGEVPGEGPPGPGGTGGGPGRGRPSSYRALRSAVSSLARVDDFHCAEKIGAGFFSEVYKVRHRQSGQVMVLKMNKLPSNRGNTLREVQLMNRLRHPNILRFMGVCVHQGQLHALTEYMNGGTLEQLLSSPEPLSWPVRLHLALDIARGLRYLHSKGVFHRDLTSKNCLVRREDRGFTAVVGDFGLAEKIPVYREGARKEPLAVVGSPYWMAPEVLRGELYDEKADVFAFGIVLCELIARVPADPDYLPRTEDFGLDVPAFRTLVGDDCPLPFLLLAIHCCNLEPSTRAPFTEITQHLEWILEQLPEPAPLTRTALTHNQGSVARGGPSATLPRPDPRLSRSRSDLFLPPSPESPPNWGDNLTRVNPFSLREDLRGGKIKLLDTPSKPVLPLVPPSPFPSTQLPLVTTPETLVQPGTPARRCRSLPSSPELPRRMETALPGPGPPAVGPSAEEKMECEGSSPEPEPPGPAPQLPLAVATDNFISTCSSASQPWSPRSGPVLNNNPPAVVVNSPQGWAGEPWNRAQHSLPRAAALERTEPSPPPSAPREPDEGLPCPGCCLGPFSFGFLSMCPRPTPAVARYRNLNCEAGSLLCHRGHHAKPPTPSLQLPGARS", "chain of UniProt Q9BQI3 (whole entry, looked up)": "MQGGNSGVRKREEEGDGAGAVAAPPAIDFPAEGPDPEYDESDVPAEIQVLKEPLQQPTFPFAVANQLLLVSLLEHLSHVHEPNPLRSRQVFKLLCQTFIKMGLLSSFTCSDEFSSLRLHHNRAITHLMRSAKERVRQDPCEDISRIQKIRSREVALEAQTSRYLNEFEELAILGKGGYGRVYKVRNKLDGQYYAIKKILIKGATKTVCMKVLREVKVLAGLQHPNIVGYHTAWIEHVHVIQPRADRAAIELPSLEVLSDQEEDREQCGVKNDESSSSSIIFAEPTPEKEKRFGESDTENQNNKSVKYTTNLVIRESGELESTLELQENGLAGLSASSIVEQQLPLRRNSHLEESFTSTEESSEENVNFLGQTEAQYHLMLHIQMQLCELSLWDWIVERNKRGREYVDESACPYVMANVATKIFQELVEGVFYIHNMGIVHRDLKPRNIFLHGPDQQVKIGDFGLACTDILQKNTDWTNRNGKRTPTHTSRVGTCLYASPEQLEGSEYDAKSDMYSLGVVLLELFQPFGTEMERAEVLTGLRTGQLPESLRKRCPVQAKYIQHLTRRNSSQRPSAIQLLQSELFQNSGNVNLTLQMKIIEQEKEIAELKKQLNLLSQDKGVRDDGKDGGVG", "chain of UniProt O14920 (whole entry, looked up)": "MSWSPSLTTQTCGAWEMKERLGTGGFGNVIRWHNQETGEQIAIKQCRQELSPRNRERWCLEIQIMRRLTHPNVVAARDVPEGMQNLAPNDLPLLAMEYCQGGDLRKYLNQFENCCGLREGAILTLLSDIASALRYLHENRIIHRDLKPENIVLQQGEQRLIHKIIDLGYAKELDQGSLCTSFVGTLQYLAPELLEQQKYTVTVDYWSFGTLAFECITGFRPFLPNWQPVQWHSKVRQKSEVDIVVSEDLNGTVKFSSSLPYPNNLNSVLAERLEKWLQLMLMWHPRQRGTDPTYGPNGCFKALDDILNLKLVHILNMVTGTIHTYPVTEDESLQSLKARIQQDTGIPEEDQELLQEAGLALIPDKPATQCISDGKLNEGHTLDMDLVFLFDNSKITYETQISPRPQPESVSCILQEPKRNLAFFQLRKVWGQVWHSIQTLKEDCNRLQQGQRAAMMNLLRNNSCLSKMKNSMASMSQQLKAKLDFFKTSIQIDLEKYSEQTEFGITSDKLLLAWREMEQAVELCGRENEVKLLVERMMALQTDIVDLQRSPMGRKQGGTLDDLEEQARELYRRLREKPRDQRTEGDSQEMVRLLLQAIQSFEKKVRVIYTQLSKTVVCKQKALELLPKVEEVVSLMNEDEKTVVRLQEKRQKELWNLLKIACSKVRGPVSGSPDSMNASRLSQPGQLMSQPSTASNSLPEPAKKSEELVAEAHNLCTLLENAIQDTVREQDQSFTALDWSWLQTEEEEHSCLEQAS", "chain of UniProt Q9UEE5 (whole entry, looked up)": "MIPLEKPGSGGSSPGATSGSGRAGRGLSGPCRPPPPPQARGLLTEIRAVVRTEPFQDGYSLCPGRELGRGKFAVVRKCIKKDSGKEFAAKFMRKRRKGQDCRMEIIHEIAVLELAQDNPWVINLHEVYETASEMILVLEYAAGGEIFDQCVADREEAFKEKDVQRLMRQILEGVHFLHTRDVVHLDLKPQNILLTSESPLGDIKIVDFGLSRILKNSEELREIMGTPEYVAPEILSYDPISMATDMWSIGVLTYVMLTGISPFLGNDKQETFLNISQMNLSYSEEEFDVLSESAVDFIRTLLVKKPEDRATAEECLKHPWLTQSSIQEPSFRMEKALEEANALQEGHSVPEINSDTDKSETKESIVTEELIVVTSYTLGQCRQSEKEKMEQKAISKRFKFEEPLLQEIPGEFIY", "chain of UniProt P42336 (whole entry, unmodified, looked up)": "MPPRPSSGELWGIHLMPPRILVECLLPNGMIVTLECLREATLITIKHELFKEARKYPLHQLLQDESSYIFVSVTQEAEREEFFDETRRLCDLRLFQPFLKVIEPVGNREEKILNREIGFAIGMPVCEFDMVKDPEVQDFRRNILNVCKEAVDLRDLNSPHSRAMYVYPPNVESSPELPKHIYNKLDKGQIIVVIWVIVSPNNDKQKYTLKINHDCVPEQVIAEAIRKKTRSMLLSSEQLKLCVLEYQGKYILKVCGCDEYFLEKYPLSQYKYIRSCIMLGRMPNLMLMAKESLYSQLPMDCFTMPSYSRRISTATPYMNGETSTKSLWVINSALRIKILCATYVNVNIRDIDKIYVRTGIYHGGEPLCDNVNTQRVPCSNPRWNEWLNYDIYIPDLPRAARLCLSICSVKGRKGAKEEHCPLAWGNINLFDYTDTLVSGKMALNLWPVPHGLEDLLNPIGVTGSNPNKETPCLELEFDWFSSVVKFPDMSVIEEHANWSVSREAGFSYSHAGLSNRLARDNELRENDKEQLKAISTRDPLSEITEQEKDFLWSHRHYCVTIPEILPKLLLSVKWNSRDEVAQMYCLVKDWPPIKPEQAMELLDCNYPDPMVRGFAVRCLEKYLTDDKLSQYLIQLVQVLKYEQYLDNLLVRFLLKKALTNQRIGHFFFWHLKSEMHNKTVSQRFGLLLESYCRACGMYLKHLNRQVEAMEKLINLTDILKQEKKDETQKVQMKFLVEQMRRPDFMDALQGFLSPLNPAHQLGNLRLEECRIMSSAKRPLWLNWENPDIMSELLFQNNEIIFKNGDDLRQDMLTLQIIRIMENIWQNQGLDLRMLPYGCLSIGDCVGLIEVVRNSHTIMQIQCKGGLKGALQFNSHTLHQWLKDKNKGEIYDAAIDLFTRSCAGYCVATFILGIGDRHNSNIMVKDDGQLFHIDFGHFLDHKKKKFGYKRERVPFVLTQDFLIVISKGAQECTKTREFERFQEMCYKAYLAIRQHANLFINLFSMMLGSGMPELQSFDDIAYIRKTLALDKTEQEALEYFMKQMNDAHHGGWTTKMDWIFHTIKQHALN"}
{"data": "Sample 1", "target": "RNA binding protein fox-1 homolog 2, RRM domain, GST-SBP tag (RBFOX2, Homo sapiens, UniProt O43251-10, residues 100-194)", "technique": "RNA Bind-n-Seq", "molecule type": "RNA", "sample": "in vitro", "concentration": "365 nM", "setting": "natural RNA segment, single round, ends assumed", "relative to": "no-protein control", "reading": "higher = stronger binding"}
{"Sequence": "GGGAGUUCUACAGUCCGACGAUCAGGGCCUUGAAUCCUUUUUUGUUUUCAACAGUCUUGCUGAAUUAAGCAGAAAGGGCCUUGAAUCCUGGCCUGGAAUUUGGGCAGAUAUAGCAUUAAUAAAACUGUGCAUCUGGAAUUCUCGGGUGCCAA", "RBNS enrichment (R)": 0.598}
{"Sequence": "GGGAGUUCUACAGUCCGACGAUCUUUUAUUGUCCAAAGAGAGUCAGAGCUAAGCAUACAGGCUUGGGGGUGAGCCCUGCUGUGAGAGUUCAGGCCCUGGGAGGCUCAGCCACCUCCUCUUGUGGGAAGGAGGUUGGAAUUCUCGGGUGCCAA", "RBNS enrichment (R)": 0.501}
{"Sequence": "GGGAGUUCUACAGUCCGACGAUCUGUUAUGCAAACAGUAAUUUUUCCCUAUGUUAUGAAGAGAGACAUAUUGGCUUGCUUUAAUUUACUUAUUUAUGAAAUUAAAGCAUGAAUAAUAUGUAUAAUUUGAAUUUUGGAAUUCUCGGGUGCCAA", "RBNS enrichment (R)": 3.02}
{"Sequence": "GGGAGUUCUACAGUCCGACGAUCAAAAAAAUCUCAAGCAAACUUGGAGUGGCAGUCCAGGGCAUGUCGCAGGAGCAGGAGUGGCUCCAAGCUGUGCUCUCCAUGAACUCUGGCUCUGGGGAGAUUUCUAGUAAUGGAAUUCUCGGGUGCCAA", "RBNS enrichment (R)": 0.932}
{"Sequence": "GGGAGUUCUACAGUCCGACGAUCGCCACGAGAGCAUCUACAGUUUGUACUCUGGGGCUGCAGGCAUCCUGGGACGCUGUACGCAAUUCAGUGGUCUAGUCCUUUAUACCGACUCAGAUUCCUUAAGCAUGCAGUGGAAUUCUCGGGUGCCAA", "RBNS enrichment (R)": 2.84}
{"Sequence": "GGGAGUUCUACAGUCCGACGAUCGAGGGAUUUGACCUUGUUCCCAAGGGAUUGAGAGUCUAGUGAGCAGCCCAGGGGCAAAGGCAGUCAACUUGCAUGUGAUACAAGACAGGCCAGGCAGAGCUGGUGUGACUUGGAAUUCUCGGGUGCCAA", "RBNS enrichment (R)": 31.6}
{"Sequence": "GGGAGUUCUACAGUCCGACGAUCUAAUGUUGUUUAUAUAGUAUGUAUUAAAUUUUCCUACAUUGUAAAACUGCUGUACUUUUGAUUCUUGUAUAUUAAAAAGUGUUACUGAGCAUUUUUAGAAUUGGGCUAACUGGAAUUCUCGGGUGCCAA", "RBNS enrichment (R)": 0.55}
{"Sequence": "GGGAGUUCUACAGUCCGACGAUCGUGGCACACACUGACCACACAUUAGGCUGUGUCACCAUUGUGUGGUGUACCUGCUGGAAGAAUUCUAGCAUGCUACUUGGGGACAUAAUUUCAGUGGGAAAUAUGCCACUUGGAAUUCUCGGGUGCCAA", "RBNS enrichment (R)": 4.36}
{"data": "Sample 2", "target": "Tyrosine-protein kinase FRK (FRK, Homo sapiens, UniProt P42685)", "effect on": "enzyme activity", "action": "inhibitor", "concentration": "0.5 µM", "relative to": "control", "chain of UniProt P42685 (whole entry, looked up)": "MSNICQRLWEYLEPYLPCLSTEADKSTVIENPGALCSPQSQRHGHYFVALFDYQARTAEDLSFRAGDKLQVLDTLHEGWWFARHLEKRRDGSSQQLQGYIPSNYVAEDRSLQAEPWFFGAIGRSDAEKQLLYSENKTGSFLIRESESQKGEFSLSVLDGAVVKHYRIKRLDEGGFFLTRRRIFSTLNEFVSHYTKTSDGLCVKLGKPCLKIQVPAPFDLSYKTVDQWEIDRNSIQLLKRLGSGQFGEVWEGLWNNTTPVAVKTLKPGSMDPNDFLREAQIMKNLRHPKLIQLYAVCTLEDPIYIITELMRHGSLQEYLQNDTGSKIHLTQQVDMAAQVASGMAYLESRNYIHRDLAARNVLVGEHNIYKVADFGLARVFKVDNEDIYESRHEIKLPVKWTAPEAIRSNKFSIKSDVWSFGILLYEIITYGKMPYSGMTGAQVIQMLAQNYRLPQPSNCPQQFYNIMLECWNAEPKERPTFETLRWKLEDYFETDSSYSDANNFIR"}
{"Compound": "O=C1NC(=O)C(c2cn(CCCO)c3ncccc23)=C1c1cnccn1", "remaining activity [%]": 88.3}
{"Compound": "Nc1ccc2ncnc(NCCc3ccc(Oc4ccccc4)cc3)c2c1", "remaining activity [%]": 100}
{"Compound": "COc1cc2nccc(Oc3ccc(NC(=S)NC(=O)c4ccccc4C)cc3)c2cc1OC", "remaining activity [%]": 27.5}
{"Compound": "Cc1cccc(-c2[nH]c(C(C)(C)C)nc2-c2ccc3c(c2)OCO3)n1", "remaining activity [%]": 98.8}
{"Compound": "O=C(CCCc1ccc(-c2ccccc2F)cc1)Nc1ccc(O)cc1", "remaining activity [%]": 91.9}
{"Compound": "O=C1NC(=O)C(c2cn(CCCn3ccnc3)c3ccccc23)=C1Nc1ccccc1", "remaining activity [%]": 107}
{"Compound": "O=C(Nc1cccc(Nc2cc(Nc3cccc(C(F)(F)F)c3)ncn2)c1)C1CC1", "remaining activity [%]": 102}
{"Compound": "CCOC(=O)c1c(C)[nH]c(/C=C2\\C(=O)Nc3ccccc32)c1C", "remaining activity [%]": 95.3}
{"Compound": "Nc1[nH]nc2nc3ccccc3nc12", "remaining activity [%]": 96.8}
{"Compound": "OCC(O)CCON=C1C(c2c(O)[nH]c3ccccc23)=Nc2ccccc21 (stereo not shown)", "remaining activity [%]": 49.7}
{"Compound": "COc1ccc(C(=O)Nc2sc3c(c2C(N)=O)CCCC3)cc1OC", "remaining activity [%]": 88.8}
{"Compound": "Cc1nc(-c2ccccc2)c(-c2ccncc2)o1", "remaining activity [%]": 103}
{"data": "Sample 3", "SMILES": "CN([C@@H]1CCc2c(CC(=O)O)c3ccccc3n2C1)S(=O)(=O)c1ccc(F)cc1", "effect on": "cell-free assay", "technique": "competition with immobilised ligand", "concentration": "1 µM"}
{"target": "TESK1 (Homo sapiens, UniProt Q15569)", "remaining binding [%]": 91}
{"target": "IKBKB (Homo sapiens, UniProt O14920)", "remaining binding [%]": 98}
{"target": "STK17A (Homo sapiens, UniProt Q9UEE5)", "remaining binding [%]": 100}
{"target": "PIK3CA (Homo sapiens, UniProt P42336, M1043I)", "remaining binding [%]": 100}
{"target": "ALK (Homo sapiens, UniProt Q9UM73, L1196M)", "remaining binding [%]": 74}
{"target": "TLK2 (Homo sapiens, UniProt Q86UE8)", "remaining binding [%]": 100}
{"target": "EIF2AK1 (Homo sapiens, UniProt Q9BQI3)", "remaining binding [%]": 98}
{"target": "eIF-2-alpha kinase GCN2, C-terminal kinase domain (EIF2AK4, Homo sapiens, UniProt Q9P2K8, S808G)", "remaining binding [%]": 78}
{"target": "LRRK2 (Homo sapiens, UniProt Q5S007)", "remaining binding [%]": 100}
{"data": "Sample 4", "target": "FOXO3, forkhead domain (mouse, UniProt Q9WVH4, residues 31-263)", "technique": "protein-binding microarray", "molecule type": "hairpin DNA", "sample": "in vitro", "concentration": "not given", "setting": "whole hairpin DNA, median over replicate spots", "relative to": "not given", "reading": "higher = stronger binding", "chain of UniProt Q9WVH4 (31-263, looked up)": "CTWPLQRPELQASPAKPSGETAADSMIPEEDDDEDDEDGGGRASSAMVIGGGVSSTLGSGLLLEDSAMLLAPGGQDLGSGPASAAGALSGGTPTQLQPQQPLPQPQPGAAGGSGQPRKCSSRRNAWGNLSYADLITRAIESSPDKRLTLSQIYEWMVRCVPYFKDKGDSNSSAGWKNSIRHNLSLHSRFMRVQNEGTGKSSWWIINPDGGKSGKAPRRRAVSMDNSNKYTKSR"}
{"Sequence": "GAGGCCATGCTAACAACGCCTCCTGGCGTTGTTAGCATGGCCTCACACTC", "median fluorescence": "4190 a.u."}
{"Sequence": "GAGGCCATGCAAACGACGCCTCCTGGCGTCGTTTGCATGGCCTCACACTC (5mC at 14 30)", "median fluorescence": "4750 a.u."}
{"Sequence": "GAGGCCATGTAACCCGCGCCTCCTGGCGCGGGTTACATGGCCTCACACTC (5mC at 15 29)", "median fluorescence": "4370 a.u."}
{"Sequence": "GAGGCCCGGTAAACAACGCCTCCTGGCGTTGTTTACCGGGCCTCACACTC (5mC at 37)", "median fluorescence": "6120 a.u."}
{"Sequence": "GAGGCCACGTAACCAACGCCTCCTGGCGTTGGTTACGTGGCCTCACACTC", "median fluorescence": "4450 a.u."}
{"Sequence": "GAGGCCCGGCAAACAACGCCTCCTGGCGTTGTTTGCCGGGCCTCACACTC (5mC at 37)", "median fluorescence": "5530 a.u."}
{"Sequence": "GAGGCCATGCACACAACGCCTCCTGGCGTTGTGTGCATGGCCTCACACTC", "median fluorescence": "4710 a.u."}
{"Sequence": "GAGGCCATGCAAACAGCGCCTCCTGGCGCTGTTTGCATGGCCTCACACTC (5mC at 29)", "median fluorescence": "5110 a.u."}
{"note": "Repeated from above (sample 3):"}
{"target": "PIK3CA (Homo sapiens, UniProt P42336, M1043I)", "remaining binding [%]": 100}
{"target": "ALK (Homo sapiens, UniProt Q9UM73, L1196M)", "remaining binding [%]": 74}
{"target": "TLK2 (Homo sapiens, UniProt Q86UE8)", "remaining binding [%]": 100}
{"target": "EIF2AK1 (Homo sapiens, UniProt Q9BQI3)", "remaining binding [%]": 98}
